Published values pooled from the literature.
Numbered parts are unrelated; each lists some results of a single study.
UniProt Q13163, sequence (whole entry, looked up): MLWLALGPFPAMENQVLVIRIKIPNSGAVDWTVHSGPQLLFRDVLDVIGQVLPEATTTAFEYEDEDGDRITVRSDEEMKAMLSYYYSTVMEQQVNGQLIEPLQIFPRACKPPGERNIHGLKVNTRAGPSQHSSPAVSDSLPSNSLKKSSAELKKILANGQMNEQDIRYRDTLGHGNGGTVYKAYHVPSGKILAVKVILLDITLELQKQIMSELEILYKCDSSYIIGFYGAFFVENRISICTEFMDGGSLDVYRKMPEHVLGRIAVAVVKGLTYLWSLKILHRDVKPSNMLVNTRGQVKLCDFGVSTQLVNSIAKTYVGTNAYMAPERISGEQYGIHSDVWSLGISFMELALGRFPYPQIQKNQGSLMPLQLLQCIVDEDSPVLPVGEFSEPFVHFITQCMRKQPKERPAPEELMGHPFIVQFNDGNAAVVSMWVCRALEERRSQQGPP
UniProt Q8TD08, sequence (whole entry, looked up): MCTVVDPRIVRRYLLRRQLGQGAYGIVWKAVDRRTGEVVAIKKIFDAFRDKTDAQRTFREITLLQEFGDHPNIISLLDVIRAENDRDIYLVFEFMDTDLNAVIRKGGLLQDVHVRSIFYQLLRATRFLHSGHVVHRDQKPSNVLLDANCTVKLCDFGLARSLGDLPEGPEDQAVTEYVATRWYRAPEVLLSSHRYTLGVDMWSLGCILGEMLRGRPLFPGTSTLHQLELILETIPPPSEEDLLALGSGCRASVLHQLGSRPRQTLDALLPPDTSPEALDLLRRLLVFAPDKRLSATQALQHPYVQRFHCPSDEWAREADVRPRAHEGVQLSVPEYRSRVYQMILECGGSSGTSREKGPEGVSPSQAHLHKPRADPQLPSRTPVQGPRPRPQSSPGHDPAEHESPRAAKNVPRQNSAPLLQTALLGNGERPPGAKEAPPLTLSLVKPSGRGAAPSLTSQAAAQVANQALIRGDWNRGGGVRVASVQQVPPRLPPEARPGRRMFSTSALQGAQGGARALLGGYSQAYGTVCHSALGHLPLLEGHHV
UniProt P35626, sequence (whole entry, looked up): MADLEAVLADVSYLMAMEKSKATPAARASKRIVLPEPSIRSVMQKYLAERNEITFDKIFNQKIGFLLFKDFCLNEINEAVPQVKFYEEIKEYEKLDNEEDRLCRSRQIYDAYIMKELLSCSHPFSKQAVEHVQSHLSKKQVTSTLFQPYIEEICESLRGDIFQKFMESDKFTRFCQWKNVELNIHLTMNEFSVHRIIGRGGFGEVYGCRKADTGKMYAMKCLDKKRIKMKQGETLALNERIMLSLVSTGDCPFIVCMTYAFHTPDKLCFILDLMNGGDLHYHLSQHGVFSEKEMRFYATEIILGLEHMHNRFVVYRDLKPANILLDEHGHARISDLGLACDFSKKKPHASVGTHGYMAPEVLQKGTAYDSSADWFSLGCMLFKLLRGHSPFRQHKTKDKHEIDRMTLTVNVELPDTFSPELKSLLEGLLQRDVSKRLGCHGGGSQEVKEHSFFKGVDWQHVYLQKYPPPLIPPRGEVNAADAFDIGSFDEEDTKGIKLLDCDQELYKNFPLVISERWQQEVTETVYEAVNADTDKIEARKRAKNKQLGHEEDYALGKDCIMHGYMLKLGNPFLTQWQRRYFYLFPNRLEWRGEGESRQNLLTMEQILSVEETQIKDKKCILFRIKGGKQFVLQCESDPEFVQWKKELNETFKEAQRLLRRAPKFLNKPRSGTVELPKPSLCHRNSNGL
UniProt P23458, sequence (whole entry, looked up): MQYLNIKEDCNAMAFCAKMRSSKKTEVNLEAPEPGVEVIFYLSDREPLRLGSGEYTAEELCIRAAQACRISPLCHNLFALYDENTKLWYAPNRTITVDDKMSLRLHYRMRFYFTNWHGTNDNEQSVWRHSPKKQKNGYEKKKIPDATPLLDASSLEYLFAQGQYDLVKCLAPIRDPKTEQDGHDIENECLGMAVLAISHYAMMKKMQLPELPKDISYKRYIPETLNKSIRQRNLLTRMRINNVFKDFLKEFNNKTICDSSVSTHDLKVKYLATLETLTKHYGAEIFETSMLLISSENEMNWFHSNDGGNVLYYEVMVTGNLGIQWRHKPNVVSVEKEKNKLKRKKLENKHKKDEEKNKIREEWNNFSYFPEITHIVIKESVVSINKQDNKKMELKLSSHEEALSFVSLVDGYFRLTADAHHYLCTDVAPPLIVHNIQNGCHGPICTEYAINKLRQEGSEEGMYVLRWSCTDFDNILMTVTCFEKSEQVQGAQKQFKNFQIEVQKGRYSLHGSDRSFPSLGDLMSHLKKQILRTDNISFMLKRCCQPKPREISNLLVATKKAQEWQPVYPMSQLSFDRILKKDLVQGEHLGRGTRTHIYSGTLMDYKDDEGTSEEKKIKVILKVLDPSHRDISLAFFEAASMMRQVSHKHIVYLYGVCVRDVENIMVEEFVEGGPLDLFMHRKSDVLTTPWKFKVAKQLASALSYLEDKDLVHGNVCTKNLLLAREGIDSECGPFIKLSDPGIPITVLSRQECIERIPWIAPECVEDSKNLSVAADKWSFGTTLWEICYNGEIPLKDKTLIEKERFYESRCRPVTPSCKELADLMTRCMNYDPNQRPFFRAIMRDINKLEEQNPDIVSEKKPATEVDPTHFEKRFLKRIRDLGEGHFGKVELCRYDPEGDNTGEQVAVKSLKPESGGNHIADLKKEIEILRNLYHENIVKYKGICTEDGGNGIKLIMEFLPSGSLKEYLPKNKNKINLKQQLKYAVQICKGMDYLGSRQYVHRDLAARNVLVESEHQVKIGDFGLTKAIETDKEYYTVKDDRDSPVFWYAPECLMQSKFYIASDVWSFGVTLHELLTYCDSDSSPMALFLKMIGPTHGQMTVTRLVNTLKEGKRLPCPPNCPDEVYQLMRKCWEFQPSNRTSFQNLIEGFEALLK
UniProt O14936, sequence (whole entry, looked up): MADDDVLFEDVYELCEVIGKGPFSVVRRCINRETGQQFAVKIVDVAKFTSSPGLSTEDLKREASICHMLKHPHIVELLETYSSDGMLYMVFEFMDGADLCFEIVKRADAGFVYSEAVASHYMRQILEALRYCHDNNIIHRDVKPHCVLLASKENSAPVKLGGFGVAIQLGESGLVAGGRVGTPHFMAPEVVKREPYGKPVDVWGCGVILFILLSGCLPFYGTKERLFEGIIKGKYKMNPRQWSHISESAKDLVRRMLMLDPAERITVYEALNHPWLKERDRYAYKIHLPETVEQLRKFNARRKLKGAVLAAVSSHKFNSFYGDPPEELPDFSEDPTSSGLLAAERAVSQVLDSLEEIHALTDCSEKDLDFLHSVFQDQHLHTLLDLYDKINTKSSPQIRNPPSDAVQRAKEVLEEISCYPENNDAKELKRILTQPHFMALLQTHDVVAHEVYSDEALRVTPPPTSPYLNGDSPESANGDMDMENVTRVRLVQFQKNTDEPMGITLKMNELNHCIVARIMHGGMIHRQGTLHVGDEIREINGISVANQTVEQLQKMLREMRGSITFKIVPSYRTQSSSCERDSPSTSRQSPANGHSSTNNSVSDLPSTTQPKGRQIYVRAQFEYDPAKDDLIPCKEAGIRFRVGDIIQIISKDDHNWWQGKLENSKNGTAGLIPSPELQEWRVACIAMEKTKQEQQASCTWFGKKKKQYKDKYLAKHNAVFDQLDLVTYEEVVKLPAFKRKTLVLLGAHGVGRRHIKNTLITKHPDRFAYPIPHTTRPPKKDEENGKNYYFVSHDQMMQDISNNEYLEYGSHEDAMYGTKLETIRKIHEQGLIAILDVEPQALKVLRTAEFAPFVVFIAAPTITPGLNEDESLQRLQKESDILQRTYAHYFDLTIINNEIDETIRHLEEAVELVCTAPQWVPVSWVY
UniProt P54646, sequence (whole entry, looked up): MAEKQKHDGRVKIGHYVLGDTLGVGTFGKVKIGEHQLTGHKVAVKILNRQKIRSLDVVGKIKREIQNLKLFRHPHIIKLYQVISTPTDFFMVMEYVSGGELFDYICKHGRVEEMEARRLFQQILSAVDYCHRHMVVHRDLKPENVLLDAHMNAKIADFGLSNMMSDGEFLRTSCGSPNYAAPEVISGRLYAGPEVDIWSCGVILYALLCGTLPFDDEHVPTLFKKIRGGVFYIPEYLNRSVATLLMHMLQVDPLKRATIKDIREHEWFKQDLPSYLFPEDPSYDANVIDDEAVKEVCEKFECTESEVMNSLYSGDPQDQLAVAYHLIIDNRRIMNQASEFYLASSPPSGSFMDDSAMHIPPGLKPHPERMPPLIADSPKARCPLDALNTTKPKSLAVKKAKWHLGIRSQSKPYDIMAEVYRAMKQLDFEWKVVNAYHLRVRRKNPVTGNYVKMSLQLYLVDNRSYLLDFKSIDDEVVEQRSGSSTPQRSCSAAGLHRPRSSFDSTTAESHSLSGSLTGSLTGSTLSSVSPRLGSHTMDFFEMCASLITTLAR

Set 1
Target: Histone acetyltransferase KAT6A, winged helix 2, GST fusion (KAT6A, Homo sapiens, UniProt Q92794, residues 85-181)
Method: protein binding microarray
Molecule type: double-stranded DNA, one strand shown
Medium: in vitro
Tested at: not given
Setting: 8-mer, flanks averaged, mean of 2 arrays, mostly near background
Baseline: not given
Reading: higher = stronger binding
Residues (chain): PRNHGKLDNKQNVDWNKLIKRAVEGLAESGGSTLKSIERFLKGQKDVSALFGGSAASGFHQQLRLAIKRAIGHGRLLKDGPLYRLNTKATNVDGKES
| Oligonucleotide | E-score |
| --- | --- |
| TGTCGGAA | 0.137 |
| CTTAGGTC | 0.014 |
| GAAATGCC | -0.0018 |
| CTATCCTA | -0.0652 |
| AGATTTAG | 0.126 |
| AGAAATAC | -0.00544 |
| CCGCTGCC | 0.101 |
| CAGGGTTC | 0.0169 |

Set 2
Target: Casein kinase II subunit alpha (CSNK2A1, Homo sapiens, UniProt P68400)
UniProt P68400, sequence (whole entry, looked up): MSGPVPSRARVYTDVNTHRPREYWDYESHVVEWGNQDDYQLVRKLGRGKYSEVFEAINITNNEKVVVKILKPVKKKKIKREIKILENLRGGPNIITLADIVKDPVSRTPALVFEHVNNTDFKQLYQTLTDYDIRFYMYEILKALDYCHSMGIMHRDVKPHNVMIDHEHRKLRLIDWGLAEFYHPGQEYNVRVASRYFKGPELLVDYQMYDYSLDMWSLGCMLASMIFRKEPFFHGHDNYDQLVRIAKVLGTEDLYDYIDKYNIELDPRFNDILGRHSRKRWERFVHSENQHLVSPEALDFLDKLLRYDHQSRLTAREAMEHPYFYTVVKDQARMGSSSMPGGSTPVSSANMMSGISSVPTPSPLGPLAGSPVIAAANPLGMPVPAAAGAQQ
Observed: enzyme activity
Action: inhibitor
Tested at: 0.5 µM
Baseline: control
| Structure (SMILES) | remaining activity [%] |
| --- | --- |
| O=S(=O)(c1cccc2cnccc12)N1CCCNCC1 | 94.9 |
| O=C(CCCc1ccc(-c2ccccc2F)cc1)Nc1ccc(O)cc1 | 89.4 |
| Cc1ccc(Nc2nccc(N(C)c3ccc4c(C)n(C)nc4c3)n2)cc1S(N)(=O)=O | 114 |
| COc1ccc(C(=O)Nc2sc3c(c2C(N)=O)CCCC3)cc1OC | 98.8 |
| COc1cc2nccc(Oc3ccc(NC(=S)NC(=O)c4ccccc4C)cc3)c2cc1OC | 98.9 |
| COc1cc2ncnc(Nc3ccc(F)c(Cl)c3)c2cc1OCCCN1CCOCC1 | 114 |
| Cc1ccc(NC(=O)c2ccc(CN3CCN(C)CC3)cc2)cc1Nc1nc(-c2cccnc2)cs1 | 99.2 |
| Cn1c2ccccc2c2c3c(c4c5ccccc5n(CCC#N)c4c21)CNC3=O | 73.1 |
| COc1ccc(OC)c2c(=S)c3ccccc3[nH]c12 | 100 |
| O=c1c2ccccc2[nH]c(=S)n1CCN1CCC(=C(c2ccc(F)cc2)c2ccc(F)cc2)CC1 | 97.9 |
| O=C(O)c1ccc2c3c1cccc3c(=O)n1c3ccccc3nc21 | 28.3 |
| O=C1NC(=O)C(c2cn(CCCn3ccnc3)c3ccccc23)=C1Nc1ccccc1 | 100 |

Set 3
Target: Prothrombin, mature alpha-thrombin (F2, Homo sapiens, UniProt P00734)
Method: aptamer microarray, sandwich
Molecule type: DNA with 2'F-ANA
Medium: in vitro
Tested at: 200 nM
Setting: whole 15-mer aptamer, many near background
Added: Cy3 exosite-II aptamer, 400 nM
Reading: higher = stronger binding
Oligonucleotide: GGTTGGTGTGGTTGG
| Modification | mean fluorescence intensity [a.u.] |
| --- | --- |
| 2'F-ANA at 1 3 4 5 8 9 10 12 15 | 60.7 |
| 2'F-ANA at 2 3 4 7 8 12 13 | 821 |
| 2'F-ANA at 4 8 | 406 |
| 2'F-ANA at 1 4 6 8 11 | 97.2 |
| 2'F-ANA at 2 3 4 7 10 14 | 208 |
| 2'F-ANA at 3 5 6 10 11 13 | 53.1 |
| 2'F-ANA at 2 3 4 9 10 11 13 | 220 |
| 2'F-ANA at 2 5 6 7 10 11 14 | 46.1 |

Set 4
SMILES: O=C(Nc1cccnn1)N1CC(C/C=C/c2cncc(Oc3ccc(C(F)(F)F)cn3)n2)C1
Observed: cell-free assay
Method: competition with immobilised ligand
Tested at: 1 µM
| target | remaining binding [%] |
| --- | --- |
| Peripheral plasma membrane protein CASK (CASK, Homo sapiens, UniProt O14936) | 64 |
| 5'-AMP-activated protein kinase catalytic subunit alpha-2 (PRKAA2, Homo sapiens, UniProt P54646) | 96 |
| Serine/threonine-protein kinase TAO2 (TAOK2, Homo sapiens, UniProt Q9UL54) | 66 |
| Proto-oncogene tyrosine-protein kinase receptor Ret (RET, Homo sapiens, UniProt P07949, V804L) | 93 |
| RAC-gamma serine/threonine-protein kinase (AKT3, Homo sapiens, UniProt Q9Y243) | 100 |
| Serine/threonine-protein kinase RIO2 (RIOK2, Homo sapiens, UniProt Q9BVS4) | 77 |
| Epidermal growth factor receptor (EGFR, Homo sapiens, UniProt P00533) | 99 |
| Ribosomal protein S6 kinase beta-1 (RPS6KB1, Homo sapiens, UniProt P23443) | 71 |
| Mitogen-activated protein kinase 15 (MAPK15, Homo sapiens, UniProt Q8TD08) | 100 |
| G protein-coupled receptor kinase 3 (GRK3, Homo sapiens, UniProt P35626) | 100 |
| Tyrosine-protein kinase JAK1, JH1 (JAK1, Homo sapiens, UniProt P23458) | 100 |
| Dual specificity mitogen-activated protein kinase kinase 5 (MAP2K5, Homo sapiens, UniProt Q13163) | 88 |

For quick reference, copied from above (set 1):
| Oligonucleotide | E-score |
| --- | --- |
| AGATTTAG | 0.126 |
| AGAAATAC | -0.00544 |
| TGTCGGAA | 0.137 |
| GAAATGCC | -0.0018 |
| CCGCTGCC | 0.101 |
